# Measured values gathered from unrelated publications.
# Every numbered part comes from another study and shows a few of its results, in no order. Positions count from the first letter of the parent shown.

# Series 1 — target: CEP164, C-terminal peptide (human); technique: DHFR complementation, deep sequencing; medium: yeast; relative to: wild type; direction: higher = weaker binding
# Notes: single substitutions, model-inferred values
# Parent: PDZK1, PDZ domain 2 (human); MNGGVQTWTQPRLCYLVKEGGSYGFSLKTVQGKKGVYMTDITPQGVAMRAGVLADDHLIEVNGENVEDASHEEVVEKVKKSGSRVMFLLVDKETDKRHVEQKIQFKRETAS; partner HNRVKVYRF
Substitution,binding free energy change
P43V,0.49 kcal/mol
K28T,-0.383 kcal/mol
K18M,0.372 kcal/mol
H98F,-0.0908 kcal/mol
E67P,1.18 kcal/mol
E100P,-0.124 kcal/mol
D55H,0.62 kcal/mol
T109D,-0.132 kcal/mol

# Series 2 — technique: aptamer microarray, sandwich; form: DNA with 2'F-ANA; medium: in vitro; concentration: 200 nM; with: Cy3 exosite-II aptamer, 400 nM; direction: higher = stronger binding; sequence: GGTTGGTGTGGTTGG
# Target: Prothrombin, mature alpha-thrombin (F2, Homo sapiens, UniProt P00734)
# Notes: whole 15-mer aptamer, many near background
Modification,mean fluorescence intensity
2'F-ANA at 1 2 5 8 10 12 14 15,58.5 a.u.
2'F-ANA at 1 3 5 14 15,45.9 a.u.
2'F-ANA at 1 5 6 12 15,105 a.u.
2'F-ANA at 4 5 7 13 14,50.2 a.u.
2'F-ANA at 1 2 3 4 5 6 8 12 14,47.4 a.u.
2'F-ANA at 1 3 4 6 8 14,124 a.u.
2'F-ANA at 1 4 5 6 7 11 12 15,79 a.u.
2'F-ANA at 1 5 6 7 8 10 12,49.3 a.u.

# Further values, each from its own experiment — CCNB3: CCNB3, cyclin fold, Cln2 fusion (human)
# P1: viral docking peptide; KGVKRKLFAEDSS; partner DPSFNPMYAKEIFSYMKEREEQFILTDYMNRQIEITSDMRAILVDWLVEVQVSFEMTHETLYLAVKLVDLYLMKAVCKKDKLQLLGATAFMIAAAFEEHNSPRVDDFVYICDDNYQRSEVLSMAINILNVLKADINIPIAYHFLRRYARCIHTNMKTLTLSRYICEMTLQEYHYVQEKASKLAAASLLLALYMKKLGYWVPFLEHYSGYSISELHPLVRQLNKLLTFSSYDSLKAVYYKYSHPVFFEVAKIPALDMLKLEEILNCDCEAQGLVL
# P2: PafA, mature enzyme, eGFP fusion (Elizabethkingia meningoseptica, UniProt Q9KJX5); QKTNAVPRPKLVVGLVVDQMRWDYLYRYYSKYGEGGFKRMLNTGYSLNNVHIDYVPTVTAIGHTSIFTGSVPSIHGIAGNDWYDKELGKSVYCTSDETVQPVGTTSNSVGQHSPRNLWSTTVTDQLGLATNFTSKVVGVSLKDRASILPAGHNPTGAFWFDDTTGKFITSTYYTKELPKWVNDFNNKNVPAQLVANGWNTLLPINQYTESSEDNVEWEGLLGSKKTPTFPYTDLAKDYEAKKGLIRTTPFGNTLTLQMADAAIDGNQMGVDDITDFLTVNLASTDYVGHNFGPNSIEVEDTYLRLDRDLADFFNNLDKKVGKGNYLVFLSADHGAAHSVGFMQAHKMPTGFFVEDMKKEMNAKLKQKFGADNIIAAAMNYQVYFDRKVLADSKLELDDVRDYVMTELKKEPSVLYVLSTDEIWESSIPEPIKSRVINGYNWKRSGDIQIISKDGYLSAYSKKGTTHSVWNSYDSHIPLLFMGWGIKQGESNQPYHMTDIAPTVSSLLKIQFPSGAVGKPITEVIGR
Substitution,target,assay,system,setting,scale,quantity,value
P1 K4R,CCNB3,"yeast growth competition, sequencing",yeast,strong parent motif,"relative to: not given, higher = stronger binding",normalised enrichment score,5.31
P2 S210V,"inorganic phosphate, free oxyanion",microfluidic competitive inhibition,"in vitro, cell-free expressed","not given, derived from inhibition constants, unchanged parent 615000 nM",lower = stronger binding,phosphate dissociation constant,355 µM
P1 S12L,CCNB3,"yeast growth competition, sequencing",yeast,strong parent motif,"relative to: not given, higher = stronger binding",normalised enrichment score,2.85
P2 W198V,"inorganic phosphate, free oxyanion",microfluidic competitive inhibition,"in vitro, cell-free expressed","not given, derived from inhibition constants, unchanged parent 615000 nM",lower = stronger binding,phosphate dissociation constant,260 µM

# Excerpt of the above (series 1):
Substitution,binding free energy change
K28T,-0.383 kcal/mol
K18M,0.372 kcal/mol
